Assay results pooled from the literature.
Parts stem from different laboratories: compare values within a part only.
Sequence of UniProt Q00535 (whole entry, looked up): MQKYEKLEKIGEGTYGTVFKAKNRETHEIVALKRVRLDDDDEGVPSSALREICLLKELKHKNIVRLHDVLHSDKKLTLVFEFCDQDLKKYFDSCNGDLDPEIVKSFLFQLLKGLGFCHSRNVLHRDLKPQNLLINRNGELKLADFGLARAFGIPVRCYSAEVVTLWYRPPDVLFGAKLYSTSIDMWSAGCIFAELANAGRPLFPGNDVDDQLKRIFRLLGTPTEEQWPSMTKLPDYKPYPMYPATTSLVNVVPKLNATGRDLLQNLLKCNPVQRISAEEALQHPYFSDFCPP
Sequence of UniProt P29320 (whole entry, looked up): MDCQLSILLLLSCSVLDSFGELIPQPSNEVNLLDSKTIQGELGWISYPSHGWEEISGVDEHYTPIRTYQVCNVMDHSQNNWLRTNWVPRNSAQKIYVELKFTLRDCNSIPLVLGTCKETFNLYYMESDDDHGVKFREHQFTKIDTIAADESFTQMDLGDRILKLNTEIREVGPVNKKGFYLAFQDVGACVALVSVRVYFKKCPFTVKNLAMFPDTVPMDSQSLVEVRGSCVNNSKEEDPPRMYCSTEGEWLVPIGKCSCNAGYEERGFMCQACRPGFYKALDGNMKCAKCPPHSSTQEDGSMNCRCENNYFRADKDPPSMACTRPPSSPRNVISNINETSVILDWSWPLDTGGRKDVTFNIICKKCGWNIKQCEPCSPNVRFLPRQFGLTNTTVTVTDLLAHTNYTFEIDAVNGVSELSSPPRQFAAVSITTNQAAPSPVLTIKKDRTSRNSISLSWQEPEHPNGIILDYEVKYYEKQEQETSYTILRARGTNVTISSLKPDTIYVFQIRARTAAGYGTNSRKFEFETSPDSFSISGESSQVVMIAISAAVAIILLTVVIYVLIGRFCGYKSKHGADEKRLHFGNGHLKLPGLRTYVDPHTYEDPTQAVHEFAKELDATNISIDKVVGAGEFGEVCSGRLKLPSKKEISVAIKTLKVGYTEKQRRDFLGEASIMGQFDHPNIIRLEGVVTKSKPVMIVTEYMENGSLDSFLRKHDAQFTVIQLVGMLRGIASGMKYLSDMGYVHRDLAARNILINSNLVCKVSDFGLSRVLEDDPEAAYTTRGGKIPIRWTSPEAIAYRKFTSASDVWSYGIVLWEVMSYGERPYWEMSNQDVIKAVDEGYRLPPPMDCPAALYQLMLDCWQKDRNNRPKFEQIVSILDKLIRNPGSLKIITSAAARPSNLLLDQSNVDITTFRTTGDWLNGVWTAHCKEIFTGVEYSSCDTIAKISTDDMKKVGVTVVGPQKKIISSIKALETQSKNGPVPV
Sequence of UniProt P11362 (whole entry, looked up): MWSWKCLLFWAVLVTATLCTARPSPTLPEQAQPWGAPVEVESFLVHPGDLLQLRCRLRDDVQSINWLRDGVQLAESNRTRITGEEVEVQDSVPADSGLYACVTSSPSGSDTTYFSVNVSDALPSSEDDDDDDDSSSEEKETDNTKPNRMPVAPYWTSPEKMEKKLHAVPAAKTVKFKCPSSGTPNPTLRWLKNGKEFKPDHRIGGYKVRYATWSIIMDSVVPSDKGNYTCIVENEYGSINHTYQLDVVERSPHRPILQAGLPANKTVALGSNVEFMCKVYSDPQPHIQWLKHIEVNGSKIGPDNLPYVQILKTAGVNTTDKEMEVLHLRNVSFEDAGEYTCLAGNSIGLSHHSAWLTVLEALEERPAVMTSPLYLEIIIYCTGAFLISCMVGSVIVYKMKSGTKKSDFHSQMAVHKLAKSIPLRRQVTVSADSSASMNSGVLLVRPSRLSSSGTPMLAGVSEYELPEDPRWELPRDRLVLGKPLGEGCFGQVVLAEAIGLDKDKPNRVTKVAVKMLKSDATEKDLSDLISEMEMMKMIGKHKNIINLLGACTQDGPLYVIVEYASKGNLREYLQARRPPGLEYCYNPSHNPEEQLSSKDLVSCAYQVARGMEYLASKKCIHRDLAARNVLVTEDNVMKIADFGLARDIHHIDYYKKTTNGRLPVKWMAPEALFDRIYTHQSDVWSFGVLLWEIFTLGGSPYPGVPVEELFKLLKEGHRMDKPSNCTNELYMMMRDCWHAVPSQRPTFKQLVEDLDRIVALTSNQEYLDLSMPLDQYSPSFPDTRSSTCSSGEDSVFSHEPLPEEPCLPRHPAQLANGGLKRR
Sequence of UniProt P06239 (whole entry, looked up): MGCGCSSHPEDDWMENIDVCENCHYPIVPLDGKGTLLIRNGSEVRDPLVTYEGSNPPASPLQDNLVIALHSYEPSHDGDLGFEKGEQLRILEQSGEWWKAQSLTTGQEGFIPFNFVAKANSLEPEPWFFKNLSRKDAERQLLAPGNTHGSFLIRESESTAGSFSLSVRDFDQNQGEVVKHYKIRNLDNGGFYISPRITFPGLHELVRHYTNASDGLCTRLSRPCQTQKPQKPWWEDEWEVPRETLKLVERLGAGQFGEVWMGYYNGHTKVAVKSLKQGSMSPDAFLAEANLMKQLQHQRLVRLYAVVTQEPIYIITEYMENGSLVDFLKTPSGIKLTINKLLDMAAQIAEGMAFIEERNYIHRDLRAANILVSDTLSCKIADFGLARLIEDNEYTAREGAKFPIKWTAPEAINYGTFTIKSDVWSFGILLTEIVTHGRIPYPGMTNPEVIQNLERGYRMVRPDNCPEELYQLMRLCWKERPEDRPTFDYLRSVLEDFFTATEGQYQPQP
Sequence of UniProt Q9HC98 (whole entry, looked up): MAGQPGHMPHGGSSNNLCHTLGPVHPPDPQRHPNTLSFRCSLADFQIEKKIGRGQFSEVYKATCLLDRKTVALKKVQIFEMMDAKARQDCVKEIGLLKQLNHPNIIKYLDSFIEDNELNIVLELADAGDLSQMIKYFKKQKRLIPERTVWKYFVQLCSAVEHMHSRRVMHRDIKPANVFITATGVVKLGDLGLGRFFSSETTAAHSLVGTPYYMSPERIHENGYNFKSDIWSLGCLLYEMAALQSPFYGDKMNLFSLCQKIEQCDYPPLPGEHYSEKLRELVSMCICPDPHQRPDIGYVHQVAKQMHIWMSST
Sequence of UniProt Q96PY6 (whole entry, looked up): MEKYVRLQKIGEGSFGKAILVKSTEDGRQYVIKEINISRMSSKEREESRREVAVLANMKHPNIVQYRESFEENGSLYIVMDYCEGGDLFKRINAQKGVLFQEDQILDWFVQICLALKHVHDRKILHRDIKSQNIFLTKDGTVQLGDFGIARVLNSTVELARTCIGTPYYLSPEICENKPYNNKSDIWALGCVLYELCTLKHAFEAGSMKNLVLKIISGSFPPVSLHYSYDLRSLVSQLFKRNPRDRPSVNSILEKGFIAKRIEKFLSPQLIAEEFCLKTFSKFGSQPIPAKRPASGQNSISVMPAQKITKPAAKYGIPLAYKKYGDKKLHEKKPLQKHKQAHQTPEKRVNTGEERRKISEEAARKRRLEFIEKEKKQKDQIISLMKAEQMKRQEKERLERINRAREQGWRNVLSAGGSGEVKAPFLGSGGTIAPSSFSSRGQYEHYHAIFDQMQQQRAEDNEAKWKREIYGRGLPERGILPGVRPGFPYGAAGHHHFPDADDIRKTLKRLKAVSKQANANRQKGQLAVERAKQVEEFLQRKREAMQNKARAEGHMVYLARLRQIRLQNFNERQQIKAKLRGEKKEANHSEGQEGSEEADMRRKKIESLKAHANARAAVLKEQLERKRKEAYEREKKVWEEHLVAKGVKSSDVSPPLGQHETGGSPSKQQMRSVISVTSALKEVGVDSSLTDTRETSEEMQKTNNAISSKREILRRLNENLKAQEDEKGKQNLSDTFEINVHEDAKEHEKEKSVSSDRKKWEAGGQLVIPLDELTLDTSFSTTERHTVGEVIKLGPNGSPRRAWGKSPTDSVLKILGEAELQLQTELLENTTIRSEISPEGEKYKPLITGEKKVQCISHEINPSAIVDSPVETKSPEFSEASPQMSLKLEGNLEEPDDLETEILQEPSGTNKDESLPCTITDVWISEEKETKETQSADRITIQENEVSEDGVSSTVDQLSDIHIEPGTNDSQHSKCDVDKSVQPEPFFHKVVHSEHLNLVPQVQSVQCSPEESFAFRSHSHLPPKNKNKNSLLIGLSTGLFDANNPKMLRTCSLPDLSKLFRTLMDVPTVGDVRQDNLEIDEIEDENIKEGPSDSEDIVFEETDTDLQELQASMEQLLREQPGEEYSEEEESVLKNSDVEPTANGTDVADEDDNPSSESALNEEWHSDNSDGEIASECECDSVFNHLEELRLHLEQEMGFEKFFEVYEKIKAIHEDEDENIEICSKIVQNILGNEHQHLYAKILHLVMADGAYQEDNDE
Sequence of UniProt P36894 (whole entry, looked up): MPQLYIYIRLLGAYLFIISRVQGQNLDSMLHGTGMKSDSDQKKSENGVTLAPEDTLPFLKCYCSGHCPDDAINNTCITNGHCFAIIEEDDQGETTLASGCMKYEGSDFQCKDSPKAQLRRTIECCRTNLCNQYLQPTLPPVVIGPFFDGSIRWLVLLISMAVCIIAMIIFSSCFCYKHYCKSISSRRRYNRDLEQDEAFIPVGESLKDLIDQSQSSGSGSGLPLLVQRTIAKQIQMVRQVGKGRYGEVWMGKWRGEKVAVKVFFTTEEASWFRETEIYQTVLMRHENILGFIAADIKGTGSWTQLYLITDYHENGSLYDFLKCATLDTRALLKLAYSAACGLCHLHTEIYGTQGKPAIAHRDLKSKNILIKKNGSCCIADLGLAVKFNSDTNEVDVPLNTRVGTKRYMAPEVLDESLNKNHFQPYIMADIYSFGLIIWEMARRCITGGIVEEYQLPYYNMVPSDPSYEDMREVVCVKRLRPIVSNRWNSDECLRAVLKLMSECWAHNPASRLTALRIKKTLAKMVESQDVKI

Series 1 — effect on: enzyme activity; mode: inhibitor; concentration: 0.5 µM; baseline: control; quantity: remaining activity
SMILES: O=C1NC(=O)c2c1c1c3ccccc3[nH]c1c1[nH]c3cc(Br)ccc3c21
TAOK2 (Homo sapiens, UniProt Q9UL54): 94.1%
FRK (Homo sapiens, UniProt P42685): 93.9%
FGFR1 (Homo sapiens, UniProt P11362): 85.3%
NEK6 (Homo sapiens, UniProt Q9HC98): 104%
ACVR1B (Homo sapiens, UniProt P36896): 101%
TBK1 (Homo sapiens, UniProt Q9UHD2): 53.5%
EPHA3 (Homo sapiens, UniProt P29320): 100%
MAP3K5 (Homo sapiens, UniProt Q99683): 94.9%
LCK (Homo sapiens, UniProt P06239): 88.9%
GRK7 (Homo sapiens, UniProt Q8WTQ7): 98.2%
NEK1 (Homo sapiens, UniProt Q96PY6): 89.1%
GSK3B (Homo sapiens, UniProt P49841): 63.7%
MAPKAPK2 (Homo sapiens, UniProt P49137): 101%
CSNK1G3 (Homo sapiens, UniProt Q9Y6M4): 94.6%

Series 2 — technique: competition with immobilised ligand; concentration: 1 µM; quantity: remaining binding
SMILES: COc1ccc2c(O[C@@H]3C[C@H]4C(=O)N[C@]5(C(=O)O)CC5/C=C\CCCCC[C@H](NC(=O)OC5CCCC5)C(=O)N4C3)cc(-c3csc(NC(=O)C(C)C)n3)nc2c1C (some centres unmarked)
LIM domain kinase 1 (LIMK1, Homo sapiens, UniProt P53667); cell-free assay: 100%
LRRK2 (Homo sapiens, UniProt Q5S007, G2019S); cell-free assay: 91%
CDK5 (Homo sapiens, UniProt Q00535); cell-free assay: 97%
BMPR1A (Homo sapiens, UniProt P36894); binding: 100%
STK35 (Homo sapiens, UniProt Q8TDR2); cell-free assay: 100%
PIK3CA (Homo sapiens, UniProt P42336, H1047L); cell-free assay: 79%
MAPK4 (Homo sapiens, UniProt P31152); cell-free assay: 93%

Series 3 — species: human; sample: microsomes or S9; concentration: 2 µM; time: 0.5 h; quantity: remaining compound
CN(C)c1nc2n(c(=O)n1)CCN2C(=O)Nc1ccccc1: 23.6%
Cc1nc2sc(C(=O)NC(C)(C)C)c(N)c2c(C)c1C: 5.12%
CCCN(Cc1nnc(-c2ccco2)o1)C(=O)COc1c(Cl)cc(Cl)c2ccc(C)nc12: 84%
CCOC(=O)N1C[C@H]2CCCN(C(=O)C3CCCN3S(=O)(=O)c3ccc(C)cc3)[C@@H]2C1 (some centres unmarked): 6.51%
OC(Cn1c(Cc2ccccc2)nc2ccccc21)Cn1c2ccccc2c2ccccc21 (centres unmarked): 19.7%
CCn1c(=O)n(Cc2cc(-c3ccccc3)no2)c2ccccc21: 18.1%
CC(C)(C)NS(=O)(=O)c1ccc(CCC(=O)N2CCCCCC2)cc1: 62.7%

Other studies, line by line
CC(C)n1cnc(-c2ccc(F)cc2)c1-c1ncc(C(=O)Nc2ccc(N3CCN(C)CC3)cc2)[nH]1
Hypophosphataemia incidence (IPF patients; 30 mg once daily, adverse event): 0%

Excerpt of the above (series 2):
LIM domain kinase 1 (LIMK1, Homo sapiens, UniProt P53667); cell-free assay: 100%
LRRK2 (Homo sapiens, UniProt Q5S007, G2019S); cell-free assay: 91%
